Measured values of several laboratories.
Lines come from different studies, so protocols differ. Several values in a cell are separate wells, animals, samples, runs or records. ± marks the error that the study gave.

With `Cc1nc(C)c(C=[N+]([O-])C(C)(C)C)nc1C` the PGC-1α level was 63% (immunofluorescence; MPTP-treated mice, dopaminergic neurons; dose not given; relative to: sham).
Under “β-catenin nuclear accumulation”, `CCOP(=O)(OCC)OCCCCOC(=O)C(C)c1ccc(CC(C)C)cc1` (stereo not shown) is recorded as “decreased” (immunofluorescence; rat, AOM-induced colon cancer, colon; dose not given, 40 weeks).
Under “inflammatory aggregates change”, `CC/C=C\C/C=C\C/C=C\C/C=C\C/C=C\CCCCOC(CC)C(=O)O` (stereo not shown) is recorded as -62% (APOE*3Leiden.CETP mice, high-fat/cholesterol diet; dose not given, 20 weeks; relative to: control).
`Cc1cc2c(cc1C1(c3ncc(C(=O)O)cn3)CC1)C(C)(C)CCC2(C)C` — result for “log2 fold change”: -0.34 (RNA sequencing, measured: Mta2; rat, brain; dose not given, 24 h; relative to: vehicle).
`CCCC[C@H](NC(=O)[C@@H](NC(=O)[C@H](CC(=O)O)NC(=O)[C@H](CCC(N)=O)NC(=O)[C@H](CC(C)C)NC(=O)[C@H](CC(C)C)NC(=O)[C@H](CCCN)NC(=O)[C@H](CCCNC(=N)N)NC(=O)[C@H](C)NC(=O)[C@H](CO)NC(=O)[C@H](CC(C)C)NC(=O)[C@H](CCC(N)=O)NC(=O)[C@H](CC)NC(=O)[C@H](CC(C)C)NC(=O)[C@@H](NC(=O)[C@H](CCCN)NC(=O)[C@H](CCCNC(=N)N)NC(=O)[C@H](Cc1ccc(O)cc1)NC(=O)[C@H](CO)NC(=O)[C@H](CCC(N)=O)NC(=O)[C@@H](NC(=O)[C@H](Cc1ccccc1)NC(=O)[C@@H](NC(=O)[C@H](C)NC(=O)[C@H](CC(=O)O)NC(=O)[C@@H](C)NC(=O)[C@H](Cc1ccc(O)cc1)NC)[C@@H](C)CC)[C@@H](C)O)C(C)C)[C@@H](C)CC)C(=O)N[C@@H](CC(=O)O)C(=O)NCCCCNC(=N)N` has a relative potency of 1 to 4 fold (GH release; rat, male, serum; subcutaneous, dose not given, 15 and 30 min; relative to: reference GHRH agonist JI-38).
`BP(=O)(OP(=O)([O-])OC[C@H]1O[C@@H](n2c[n+](C)c3c(=O)[nH]c(N)nc32)[C@H](O)[C@@H]1O)OP(=O)([O-])OC[C@H]1O[C@@H](n2c[n+](C)c3c(=O)[nH]c(N)nc32)[C@H](O)[C@@H]1O` has an IC50 ratio of 10 fold (cap-dependent translation; rabbit reticulocyte lysate; pre-incubated in lysate; relative to: m7GpppG over compound).
`COC1OC(C)C(OS(=O)(=O)O)C(OC2OC(C)C(OS(=O)(=O)O)C(OC3OC(C)C(OS(=O)(=O)O)C(OC4OC(C)C(OS(=O)(=O)O)C(OC5OC(C)C(OS(=O)(=O)O)C(OC6OC(C)C(OS(=O)(=O)O)C(OC7OC(C)C(OS(=O)(=O)O)C(OC8OC(C)C(OS(=O)(=O)O)C(OS(=O)(=O)O)C8OS(=O)(=O)O)C7OS(=O)(=O)O)C6OS(=O)(=O)O)C5OS(=O)(=O)O)C4OS(=O)(=O)O)C3OS(=O)(=O)O)C2OS(=O)(=O)O)C1OS(=O)(=O)O` (stereo not shown): “concentration doubling APTT” 13.6 µg/mL (clotting time; human plasma).
`COc1ccc2c(c1)c(CC(=O)OCOC(C)=O)c(C)n2C(=O)c1ccc(Cl)cc1` — result for “latency of nociceptive response”: 10.8 ± 0.59 s (hot plate test; BALB/c mice; 75 mg/kg, 0 min).
With `CCCC[C@H](NC(=O)[C@@H](NC(=O)[C@H](CC(=O)O)NC(=O)[C@H](CCC(N)=O)NC(=O)[C@H](CC(C)C)NC(=O)[C@H](CC(C)C)NC(=O)[C@H](CCCN)NC(=O)[C@H](CCCNC(=N)N)NC(=O)[C@H](C)NC(=O)[C@H](CO)NC(=O)[C@H](CC(C)C)NC(=O)[C@H](CCC(N)=O)NC(=O)[C@H](CC)NC(=O)[C@H](CC(C)C)NC(=O)[C@@H](NC(=O)[C@H](CCCN)NC(=O)[C@H](CCCNC(=N)N)NC(=O)[C@H](Cc1ccc(O)cc1)NC(=O)[C@H](CO)NC(=O)[C@H](CCC(N)=O)NC(=O)[C@@H](NC(=O)[C@H](Cc1ccccc1)NC(=O)[C@@H](NC(=O)[C@H](C)NC(=O)[C@H](CC(=O)O)NC(=O)[C@@H](C)NC(=O)[C@H](Cc1ccc(O)cc1)NC)[C@@H](C)CC)[C@@H](C)O)C(C)C)[C@@H](C)CC)C(=O)N[C@@H](CC(=O)O)C(=O)N[C@@H](CCCNC(=N)N)C(=O)NCCCCC(N)=O` the relative potency was 2.71 and 2.7 (GH release; rat, male, serum; subcutaneous, 3 µg/kg, 30 min; relative to: reference GHRH agonist JI-38).
`CC(=O)N[C@@H](CC(N)=O)C(=O)NCC(=O)N[C@@H](C)C(=O)N[C@@H](C)C(N)=O` — result for “rate constant succinimide to α-Asp”: 2.08 h⁻¹ (1H NMR; sodium phosphate buffer 50 mM; pH 7.8, 55 °C).
